Published values gathered from unrelated publications.
Protocols differ between the studies behind these lines. Numbers after ± are the reported error.
CES2: Cocaine esterase (CES2, Homo sapiens, UniProt O00748)
PGR: Progesterone receptor (PGR, Homo sapiens, UniProt P06401)
EPHX2: Bifunctional epoxide hydrolase 2 (EPHX2, Homo sapiens, UniProt P34913)

Compound	target	assay	system	setting	scale	measurement	result
NC(=O)CN1C(=O)C(O)(CC(=O)c2cccc(N)c2)c2ccccc21 (stereo not drawn)	uncharacterized protein (Leishmania donovani, UniProt A0A3Q8IA09)	Tyr fluorescence thermal shift		100 µM	reference: enzyme alone	Tm shift	~15 °C
CCCCCCCCCc1nc2ccccc2c(=O)n1O	Staphylococcus aureus membranes	di-8-ANEPPS fluorescence ratio		40 µM		membrane dipole potential change	increased
CC(CCC(=O)SCCNC(=O)CCNC(=O)C(O)C(C)(C)CO)C1CCC2C3C(O)CC4CC(O)CCC4(C)C3CC(O)C12C (stereo not drawn)	Pantetheinase (VNN1, Homo sapiens, UniProt O95497)	hydrolysis, substrate, pantothenic acid by HPLC-HRMS		15 min, 37 °C, added: VNN1 0.01 µM		Vmax	1.53 ± 0.2 min⁻¹
CC(C)[C@H](NC(=O)[C@H](CCCCN)NC(=O)[C@H](C)NC(=O)[C@H](CCCCN)NC(=O)CNC(=O)[C@H](CCCNC(=N)N)NC(=O)[C@@H](NC(=O)[C@H](CCCCN)NC(=O)[C@@H](N)CO)[C@@H](C)O)C(=O)N[C@H](C(=O)NCC(=O)N[C@@H](CCCNC(=N)N)C(=O)N[C@@H](Cc1c[nH]c2ccccc12)C(=O)N[C@@H](CCCCN)C(=O)O)[C@@H](C)O	TPM1/ACTA1, with F-actin (Oryctolagus cuniculus, UniProt P58772+P68135)	binding, LSPR		pH 7.0, added: F-actin-tropomyosin filaments		kon	5270 ± 532 M⁻¹ s⁻¹
C=CC1=C(C)c2cc3[n-]c(cc4nc(cc5[n-]c(cc1n2)c(C)c5C=C)C(C)=C4CCC(=O)O)c(CCC(=O)O)c3C.[Cl-].[Fe+3]	Coelenterazine h 2-monooxygenase (Renilla reniformis, UniProt P27652)	luciferase luminescence, inhibitor, compound added after translation	Renilla			lowest interfering concentration	> 20 µM
CC(C)C[C@@H]1NC(=O)[C@H](CCCCN)NC(=O)[C@H](Cc2c[nH]cn2)NC(=O)[C@H](Cc2c[nH]c3ccccc23)NC(=O)CNC(=O)[C@H](CC(C)C)NC(=O)[C@@H](Cc2ccc(O)cc2)NC(=O)CSC[C@@H](C(=O)NCC(=O)N[C@@H](CCCCN)C(=O)N[C@@H](CCCCN)C(=O)N[C@@H](CCCCN)C(N)=O)NC(=O)[C@H](CO)NC(=O)[C@H](CCCNC(=N)N)NC(=O)CNC(=O)[C@H](Cc2ccc(O)cc2)NC(=O)[C@@H]2CCCN2C(=O)[C@H](CCC(N)=O)NC(=O)[C@H](Cc2ccccc2)NC(=O)[C@H](Cc2c[nH]c3ccccc23)NC1=O	Alpha-synuclein (SNCA, Homo sapiens, UniProt P37840)	FRAP		200 µM, 2 min, room temperature, droplets		fluorescence recovery	~94%
CCCCCCCC(=O)Nc1ccc(OC)nc1	CES2	substrate		50 µM, pH 8, 37 °C, enzyme purity 4%		specific activity	21 pmol/min/µg
CCCCCSc1nc2c([nH]1)c(=S)n(C)c(=S)n2C	PGR	reporter gene, antagonist, MMTV-luciferase	T47D/A1-2	10 µM, 24 h, added: 5 nM progesterone	reference: maximal activity	remaining activity	72%
COc1ccc(NC(=O)CCCCc2ccccc2)c(C)n1	CES2	substrate		50 µM, pH 8, 37 °C, enzyme purity 4%		specific activity	18 pmol/min/µg
CC(C)CCC[C@@H](C)[C@H]1CC[C@H]2[C@@H]3CC=C4C[C@@H](OS(=O)(=O)O)CC[C@]4(C)[C@H]3CC[C@]12C	Prothrombin (F2, Homo sapiens, UniProt P00734)	enzyme activity, inhibitor		25 °C	reference: with 0.02% Tween 80 over without	potency loss	2 fold
CCc1cc(C)n2nc(-c3ccc(OCC[18F])cc3)c(CC(=O)N(CC)CC)c2n1	Tspo (Rattus norvegicus, UniProt P16257)	PET	rat, C6 glioma, tumour	last 30 min of scan		tumour uptake	0.4 %ID/cc
CCCCCCCC(=O)Nc1ccc(OC)nc1C	CES2	substrate		50 µM, pH 8, 37 °C, enzyme purity 4%		specific activity	33 pmol/min/µg
N=C(N)NCCC[C@H](NC(=O)[C@H](CC(=O)O)NC(=O)[C@@H]1CSCCC(=O)NCC(=O)N[C@@H](Cc2c[nH]cn2)C(=O)N[C@H](Cc2ccccc2)C(=O)N[C@@H](CCCNC(=N)N)C(=O)N[C@H](Cc2c[nH]c3ccccc23)C(=O)N1)C(=O)N[C@@H](Cc1ccccc1)C(=O)NCC(N)=O	MC5R (Homo sapiens, UniProt P33032)	cAMP accumulation, agonist	HEK293 expressing MC5R	10 µM	reference: MT-II	activation	0%
CCOC(=O)CCN1CCN(C(=S)c2ccc(-c3cc(Cl)ccc3Cl)o2)CC1	NPR2 (Homo sapiens, UniProt P20594)	HTRF, refers to: cGMP	HEK293 overexpressing GC-B	added: subthreshold CNP	reference: saturating CNP	Emax	73%
CC(=O)OC1(C(C)=O)CCC2C3C=C(CO)C4=CC(=O)CCC4(C)C3CCC21C (stereo not drawn)	PGR	agonist, refers to: GREB1	T47D	100 nM, 8 h	reference: ethanol vehicle	mRNA fold change	2 ± 0.3 fold change
C=C1C(=O)O[C@@H]2[C@H]3C(CO)=CC(=O)C3=C(C)C[C@H](OC(=O)Cc3ccc(O)cc3)[C@@H]12	MAL12 (Saccharomyces cerevisiae S288c, UniProt P53341)	3D fluorescence		65.22 µM		fluorescence decrease	72.1%
O=C(CCCCCCS)Nc1ccccc1	HDAC8 (Homo sapiens, UniProt Q9BY41)	ITC	Tris-HCl buffer	concentration not given, pH 7.5, 25 °C		binding stoichiometry	1 ± 0.1
Cn1sc(=O)n(Cc2ccccc2)c1=O	Bacteroides Pif1 helicase	ssDNA binding, fluorescence EMSA		added: dT12		inhibitory concentration	7.8 µM
CC(C)(C)CCN1C[C@@H]2[C@@H](CNC(=O)c3cc(Cl)cc(Cl)c3)[C@@H]2C1.Cl	CACNA1C (Oryctolagus cuniculus, UniProt P15381)	calcium current, whole-cell patch clamp	HEK-293T cells transfected	5 µM, median		activation slope factor k	8.77 mV
CCOC(=O)C1CCCN(C(=O)c2ccc(NC(=O)NC34CC5CC(C)(CC(C)(C5)C3)C4)cc2)C1 (stereo not drawn)	EPHX2					lipophilic ligand efficiency	5.94
CCCCCCCCNP(=O)(NCCCCCCCC)O[C@@H]1O[C@H](CO)[C@@H](O)[C@H](O)[C@H]1F	GBA1 (Homo sapiens, UniProt P04062)	enzyme activity, irreversible inhibitor		pH 5.5, 37 °C, added: 2,4-dinitrophenyl beta-D-glucopyranoside		kinact/Ki	268 M⁻¹ s⁻¹
Cn1c(=S)c2[nH]c(SCCCc3ccccc3)nc2n(C)c1=O	PGR	reporter gene, antagonist, MMTV-luciferase	T47D/A1-2	10 µM, 24 h, added: 5 nM progesterone	reference: maximal activity	remaining activity	68%
CSCC[C@H](NC(=O)[C@H](Cc1c[nH]c2ccccc12)NC(=O)CNC(=O)[C@H](Cc1ccc(O)cc1)NC(=O)[C@H](C)NC(=O)[C@H](CCC(=O)O)NC(=O)[C@H](CCC(=O)O)NC(=O)[C@H](CCC(=O)O)NC(=O)[C@H](CCC(=O)O)NC(=O)[C@H](CCC(=O)O)NC(=O)[C@@H](CCC(=O)O)NC(=O)CNC(=O)C(CNCCN)CNCCN)C(=O)N[C@@H](CC(=O)O)C(=O)N[C@@H](Cc1ccccc1)C(N)=O	CCKBR (Homo sapiens, UniProt P32239)	calcium mobilisation, fura-2	HEK293 expressing human CCK2R			Hill coefficient	0.6
CCC(=O)NC1CCN(C(=O)c2ccc(NC(=O)NC34CC5CC(C)(CC(C)(C5)C3)C4)cc2)CC1	EPHX2					lipophilic ligand efficiency	6.42
O=C(Nc1ccccc1)c1cccc([C@@H]2C[C@H]2NC2CCC2)c1 (racemic)	Lysine-specific histone demethylase 1A, with CoREST (KDM1A, Homo sapiens, UniProt O60341)	inhibitor, LC-MS			reference: total FAD species	relative N-formyl-FAD adduct	16%
CCC(NC(=O)C(CC(C)C)NC(=O)CCc1ccccc1)C(=O)C(=O)NCc1cc(F)cc(OC)c1 (stereo not drawn)	Calpain-1 catalytic subunit (Capn1, Mus musculus, UniProt O35350)	brain enzyme activity	mouse, controlled cortical impact TBI, brain	intraperitoneal, 0.1 or 1.0 mg/kg, 24 h after TBI		enzyme activity	no effect
CNc1ccccc1C(=O)O[C@H]1C[C@H](n2cnc3c(N)ncnc32)O[C@@H]1COP(=O)(O)OP(=O)(O)O	Unconventional myosin-Va (Gallus gallus, UniProt Q02440, D297C/G292C/I296C/S293C/V295G)	stopped-flow FRET		4 °C, added: MgCl2 2 mM		association rate constant	1.56e+06 ± 130000 M⁻¹ s⁻¹
